Experimental data gathered from unrelated publications.
Protocols differ between the studies behind these lines. ≈ marks a conversion by molar mass, not a printed value.

`OC(Cn1cncn1)(Cn1cncn1)c1ccc(F)cc1F` gave an MIC of 128 µg/mL (≈ 418 µM) (Candidozyma auris; inhibitor; 279; 24 h).
For `CO/N=C(\C(=O)N[C@@H]1C(=O)N2C(C(=O)O)=C(CSc3nc(=O)c(O)nn3C)CS[C@H]12)c1csc(N)n1`, the MIC was 1 µg/mL (≈ 1.8 µM) (Neisseria gonorrhoeae; broth microdilution; WHO G; 1.5 h).
With `N=C(N)c1ccc(OCc2ccc(-c3ccccc3)cc2COc2ccc(C(=N)N)cc2)cc1` the MIC was 100 µg/mL (Escherichia coli; BW25113; in combination, lowest-FICI combination, together with: vancomycin).
The MIC of `CC1(C)SC2C(NC(=O)C(NC(=O)C3=C(O)C(Cc4ccco4)NC3=O)c3ccccc3)C(=O)N2C1C(=O)O` (stereo not drawn) is reported as 6.25 µg/mL (≈ 11.3 µM) (Escherichia coli; broth microdilution; BW25113 wild type; 18 h).
The MIC of `Cc1c(CN(C)C(=O)/C=C/c2cnc3c(c2)CCC(=O)N3)oc2ccccc12` is reported as 32 µg/mL (≈ 85.2 µM) (Escherichia coli; broth microdilution; AR-0559).
`CC[C@H]1OC(=O)[C@H](C)[C@@H](O[C@H]2C[C@@](C)(OC)[C@@H](O)[C@H](C)O2)[C@H](C)[C@@H](O[C@@H]2O[C@H](C)C[C@H](N(C)C)[C@H]2O)[C@](C)(O)C[C@@H](C)CN(C)[C@H](C)[C@@H](O)[C@]1(C)O` gave an MIC of 1 µg/mL (≈ 1.34 µM) (Neisseria gonorrhoeae; broth microdilution; WHO P; 1.5 h).
With `c1ccc2[nH]c(CNCC34CC5CC(CC(C5)C3)C4)nc2c1` the MIC was greater than 128 µg/mL (Enterobacter aerogenes; ATCC 35029).
With `CN[C@H](CC(C)C)C(=O)N[C@H]1C(=O)N[C@@H](CC(N)=O)C(=O)N[C@H]2C(=O)N[C@H]3C(=O)N[C@H](C(=O)N[C@H](C(=O)O)c4cc(O)cc(O)c4-c4cc3ccc4O)[C@H](O)c3ccc(c(Cl)c3)Oc3cc2cc(c3O[C@@H]2O[C@H](CO)[C@@H](O)[C@H](O)[C@H]2O[C@H]2C[C@](C)(N)[C@H](O)[C@H](C)O2)Oc2ccc(cc2Cl)[C@H]1O` the MIC was 0.5 µg/mL (≈ 0.345 µM) (Streptococcus pyogenes; broth microdilution; 8007).
With `CC1(C)S[C@@H]2[C@H](NC(=O)Cc3ccccc3)C(=O)N2[C@H]1C(=O)O` the MIC was 16 µg/mL (≈ 47.8 µM) (Neisseria gonorrhoeae; broth microdilution; WHO M; 1.5 h).
`CC(C)CC1NC(=O)C(C(=O)NC(C(=O)NC2C(=O)N3C2SC(C)(C)C3C(=O)O)c2ccccc2)=C1O` (stereo not drawn) has an MIC of 50 µg/mL (≈ 94.2 µM) (Escherichia coli; broth microdilution; BW25113 wild type; 18 h).
`NC[C@H]1O[C@H](O[C@H]2[C@H](O)[C@@H](O[C@H]3O[C@H](CO)[C@@H](O)[C@H](N)[C@H]3O)[C@H](N)C[C@@H]2N)[C@H](O)[C@@H](O)[C@@H]1O` gave an MIC of 2 µg/mL (≈ 4.13 µM) (Micrococcus luteus; broth microdilution; ATCC 4698; 43 h, 37 °C, cation-adjusted Mueller-Hinton broth).
`CC1(C)S[C@@H]2[C@H](NC(=O)[C@H](N)c3ccccc3)C(=O)N2[C@H]1C(=O)O` gave an MIC of greater than 16 µg/mL (Pseudomonas aeruginosa; clinical isolate RKI-No_579/15).

Repeated from above:
With `N=C(N)c1ccc(OCc2ccc(-c3ccccc3)cc2COc2ccc(C(=N)N)cc2)cc1` the MIC was 100 µg/mL (Escherichia coli; BW25113; in combination, lowest-FICI combination, together with: vancomycin).
